Results of several laboratories.
Target: Serine/threonine-protein kinase PLK1 (PLK1, Homo sapiens, UniProt P53350)
Sequence of UniProt P53350 (whole entry, looked up): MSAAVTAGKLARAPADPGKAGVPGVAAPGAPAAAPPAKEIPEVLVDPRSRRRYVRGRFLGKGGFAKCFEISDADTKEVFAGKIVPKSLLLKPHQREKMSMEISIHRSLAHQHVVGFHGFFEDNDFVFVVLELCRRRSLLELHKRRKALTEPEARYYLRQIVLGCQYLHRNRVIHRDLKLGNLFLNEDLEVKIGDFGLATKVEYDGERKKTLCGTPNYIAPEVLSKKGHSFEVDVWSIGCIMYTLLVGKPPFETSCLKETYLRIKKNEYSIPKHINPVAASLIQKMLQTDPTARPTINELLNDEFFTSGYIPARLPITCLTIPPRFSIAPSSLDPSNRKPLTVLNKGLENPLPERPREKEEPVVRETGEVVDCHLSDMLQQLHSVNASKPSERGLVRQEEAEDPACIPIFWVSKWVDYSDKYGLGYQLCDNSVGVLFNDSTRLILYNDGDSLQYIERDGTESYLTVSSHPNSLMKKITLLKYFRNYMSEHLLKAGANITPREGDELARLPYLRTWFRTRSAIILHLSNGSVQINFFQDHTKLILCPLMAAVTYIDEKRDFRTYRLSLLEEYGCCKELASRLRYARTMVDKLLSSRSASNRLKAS

CCn1cc(C(=O)O)c(=O)c2c(N)c(F)c(NC3CCCCC3)cc21
inhibition (kinase activity; 0.1 µM, together with: ATP at Km): -8%

Cc1cccc(-c2ccc3nc(NC(=O)C4CCCCC4)nn3c2)c1
remaining activity (enzyme activity, Dundee kinase panel; 10 µM): 81%

CCN1CCN(Cc2ccc(C(=O)Nc3ccc(C)c(NCc4cnc5[nH]ccc5c4OC)c3)cc2C(F)(F)F)CC1
remaining binding (binding, competition with immobilised ligand; 1 µM): 100%

CNC(=O)C1CCN(c2cc(C)c(F)cc2NC(=O)c2ccc(-c3cc(O)ccc3C)c(C)c2)CC1
remaining binding (binding, competition with immobilised ligand; 1 µM): 88%

C=CC(=O)N1CCc2ccc(-n3c(=O)ccc4cnc5ccc(-c6cnn(C)c6)cc5c43)cc21
remaining binding (KINOMEscan; 1 µM; baseline: DMSO control): 100%

CN1CCN(Cc2ccc(-c3ccc(CO[C@H]4CCC[C@@H]4NC(=O)c4cc(-c5cnn(C)c5)cnc4N)cc3)cc2)CC1
inhibition (enzyme activity, inhibitor; 0.1 µM): 0%

Cc1ccc(-c2c(/C=C(\C#N)C(=O)NC(C)C)n(CCCO)c3ncnc(N)c23)cc1
remaining binding (cell-free assay, competition with immobilised ligand; 1 µM): 85%

CC[C@H](C)[C@H](NC(C)=O)C(=O)N[C@@H](CC(=O)O)C(=O)N1CCC[C@H]1C(=O)N1CCC[C@H]1C(=O)N[C@@H](CC(C)C)C(=O)N[C@@H](Cc1c[nH]cn1)C(=O)N[C@@H](CO)C(=O)N[C@H](C(=O)N[C@@H](C)C(N)=O)[C@@H](C)OP(=O)(O)O
binding entropy (polo-box domain binding, isothermal titration calorimetry; concentration not given, 25 °C): -21.3 cal/(mol·K)

CNC(=O)C[C@H](Cc1ccc(C#N)cc1)NC(=O)c1cc(-c2ccc(CN[C@H](C)c3ccc(C)cc3)o2)ccc1Cl
activity vs control (enzyme activity, inhibitor; 1 µM): 92%

CC(C)=CC1OC(C)(C)C2C=C3C(=O)C(Cl)=CC(O)C3C3C(O)C4OC4C(=O)C132 (stereo not shown)
remaining binding (cell-free assay, competition with immobilised ligand; 10 µM): 75%

COc1cc(Nc2nccc(-c3cnn4nc(OC)ccc34)n2)cc(C(F)(F)F)c1
remaining binding (binding, competition with immobilised ligand; 1 µM): 90%

CN1CC[C@@H](COc2cnc(C#N)cc2-c2ccn3nc(NC(=O)C4CC4)cc3c2)C1
inhibition (enzyme activity, inhibitor; 1 µM): 11%

Cc1cccc(O[C@H]2CCC[C@@H](C(C)CNCc3ccncc3)C2)c1 (relative stereo)
inhibition (enzyme activity, inhibitor; 1 µM): 6%
